# Results gathered from unrelated publications.
# Each line is one published result; not all experiments were run side by side. Several values in a cell are separate wells, animals, samples, runs or records. Numbers after ± are the reported error.
# UniProt P06276, sequence (whole entry, looked up): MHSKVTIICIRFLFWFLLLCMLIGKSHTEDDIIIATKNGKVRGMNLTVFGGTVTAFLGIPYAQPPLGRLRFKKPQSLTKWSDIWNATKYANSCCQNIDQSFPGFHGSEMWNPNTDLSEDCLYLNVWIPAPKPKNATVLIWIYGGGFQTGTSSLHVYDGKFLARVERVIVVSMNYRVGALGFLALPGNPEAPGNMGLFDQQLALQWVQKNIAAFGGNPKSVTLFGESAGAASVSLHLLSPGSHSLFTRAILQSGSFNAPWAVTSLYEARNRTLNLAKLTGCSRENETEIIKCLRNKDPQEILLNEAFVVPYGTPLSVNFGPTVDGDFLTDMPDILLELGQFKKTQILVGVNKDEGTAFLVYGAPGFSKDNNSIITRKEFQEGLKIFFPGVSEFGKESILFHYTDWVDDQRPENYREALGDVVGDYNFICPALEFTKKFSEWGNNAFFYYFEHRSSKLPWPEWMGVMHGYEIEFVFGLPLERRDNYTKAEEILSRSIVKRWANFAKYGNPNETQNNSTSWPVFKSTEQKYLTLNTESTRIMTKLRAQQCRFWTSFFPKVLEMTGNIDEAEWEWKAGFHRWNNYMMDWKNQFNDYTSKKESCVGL
# UniProt Q9H7Z7, sequence (whole entry, looked up): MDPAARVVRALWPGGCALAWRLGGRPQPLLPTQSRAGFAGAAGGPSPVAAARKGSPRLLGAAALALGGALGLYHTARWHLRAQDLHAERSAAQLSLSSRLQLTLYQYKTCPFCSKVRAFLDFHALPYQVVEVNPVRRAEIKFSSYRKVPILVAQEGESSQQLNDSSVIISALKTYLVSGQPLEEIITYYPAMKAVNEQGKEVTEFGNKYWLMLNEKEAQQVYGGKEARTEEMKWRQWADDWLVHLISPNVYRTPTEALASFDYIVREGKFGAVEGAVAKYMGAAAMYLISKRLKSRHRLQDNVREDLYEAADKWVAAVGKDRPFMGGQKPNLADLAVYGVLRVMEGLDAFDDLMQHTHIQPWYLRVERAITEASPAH
SMILES,tested on,test,test system,conditions,how to read,endpoint,value
COc1ccccc1NC(=O)CSc1nc2cccnc2n1-c1ccccc1OC,Plasmodium falciparum,"parasite growth, SYBR Green",3D7 wild type,72 h,,EC50,414 ± 57 nM
C[C@@H](O)[C@@H]1NC(=O)[C@H](Cc2ccccc2)NC(=O)[C@@H](Cc2ccccc2)NC(=O)[C@H]([C@@H](C)O)NC(=O)[C@@H](CCCCN)NC(=O)[C@H](CC(=O)O)NC1=O,Naegleria fowleri,,,trophozoites,,IC90,> 16 µg/mL
Cn1nc(C(=O)N2CCC(c3[nH]ncc3Cc3ccccc3)CC2)c2ccccc2c1=O,Plasmodium falciparum,"parasite growth, SYBR Green",3D7 DHODH E182D,72 h,,EC50,523 ± 73 nM
C#Cc1ccc(O)c(C=NNC(=O)c2ccc(Br)cc2Br)c1,Cryptococcus neoformans,,H99,"unit not given, with: amphotericin B",lower = more synergy,FICI,4
NCCCC[C@H]1NC(=O)[C@H](Cc2ccccc2)NC(=O)[C@H](Cc2c[nH]c3ccccc23)NC(=O)[C@@H](Cc2ccccc2)NC(=O)[C@H](Cc2ccccc2)NC(=O)[C@@H](CCCN)NC(=O)[C@H](CCCN)NC1=O,Acanthamoeba castellanii,,,trophozoites,,IC50,> 16 µg/mL
C[C@@H]1[C@H](O)[C@@H](C)/C=C/C=C/C=C/C=C/C=C/C=C/C=C/[C@H](O[C@@H]2O[C@H](C)[C@@H](O)[C@H](N)[C@@H]2O)C[C@@H]2O[C@](O)(C[C@@H](O)C[C@@H](O)[C@H](O)CC[C@@H](O)C[C@@H](O)CC(=O)O[C@H]1C)C[C@H](O)[C@H]2C(=O)O,Cryptococcus neoformans,,Galleria mellonella larvae,1 mg/kg single dose,,median survival,4 days
O=C(NC(=O)c1c(F)cccc1F)Nc1ccc(Cl)cc1,Ostrinia furnacalis,leaf dipping,,"200 mg/L, 96 h",,mortality,53.3 ± 3.8%
C=CCc1ccccc1OCC(O)CNC(C)C (stereo not drawn),Plasmodium falciparum,,Dd2,,,IC50,10000 nM
CC(C)[C@H]1NC(=O)[C@H](Cc2ccccc2)NC(=O)CNC(=O)[C@@H](Cc2ccccc2)NC(=O)[C@H](CCC(N)=O)NC(=O)[C@@H](CCCN)NC1=O,Naegleria fowleri,,,trophozoites,,IC90,> 16 µg/mL
C[C@H]1CN(c2n[nH]c3nc(N[C@H]4CC[C@H](NS(=O)(=O)CCC(F)(F)F)CC4)ncc23)CCO1,"Prostaglandin E synthase 2 (Homo sapiens, UniProt Q9H7Z7)",biochemical,,,,IC50,≥ 20000 nM
CC(=O)N1CCN(c2ccc(OCC3COC(Cn4ccnc4)(c4ccc(Cl)cc4Cl)O3)cc2)CC1 (stereo not drawn),Candida albicans,,2.209,over 30 generations serial passaging,relative to: initial MIC,MIC increase,128 fold
CCCCOc1ccc(-c2noc(-c3ccc(CN)cc3)n2)cc1,Clostridioides difficile,spore germination,ATCC 43255,"45 µM, 1 h",,inhibition,12 to 33%
NCCCC[C@@H]1NC(=O)[C@@H](CCCCN)NC(=O)[C@H](CO)NC(=O)[C@H](Cc2c[nH]c3ccccc23)NC(=O)[C@@H](Cc2c[nH]c3ccccc23)NC(=O)[C@H](Cc2ccccc2)NC(=O)[C@@H](CCCCN)NC1=O,Naegleria fowleri,,,trophozoites,,IC50,> 16 µg/mL
Brc1ccc(CCNC2CCCc3c2[nH]c2ccc(-c4ccccc4)cc32)cc1 (stereo not drawn),Streptococcus pneumoniae,,,"concentration not given, 10% fetal bovine serum",relative to: without serum,MIC fold change,4
CC(COc1ccccc1)N(CCCl)Cc1ccccc1 (stereo not drawn),Plasmodium falciparum,,W2,,,IC50,2510 nM
CCCn1c(O)nnc1SCC(=O)Nc1cc(C(F)(F)F)ccc1Cl,Plasmodium falciparum,parasite growth,,,,EC50,590 ± 140 nM
CCCCCCCCCCCCCCCC(=O)NCCO,Plasmodium falciparum,,HB3,,,IC50,10000 nM
C[C@@H](O)[C@H]1C(=O)N2C(C(=O)O)=C(S[C@@H]3CN[C@H](C(=O)N(C)C)C3)[C@H](C)[C@H]12,Klebsiella pneumoniae,,"NDM-producing, neutropenic BALB/c mouse, thigh infection, thigh","dose not given, 2 h",,"bacterial burden, best",7.2 log10 CFU/thigh
Cc1nc(Nc2ccc(C)c(Cl)c2)c2c(C)noc2n1,Plasmodium falciparum,"parasite growth, SYBR Green",3D7 wild type,72 h,,EC50,945 ± 170 nM
COc1cc(N[C@H](C(=O)c2c[nH]c3ccc(OC(F)(F)F)cc23)c2ccc(Cl)cc2OC)cc(S(C)(=O)=O)c1,dengue virus 2,"viral infection, luciferase reporter virus",,"0.001 nM, 48 h",,inhibition,-10.8%
C[C@@H](O)[C@@H]1NC(=O)[C@H](Cc2ccccc2)NC(=O)[C@@H](Cc2ccccc2)NC(=O)[C@H]([C@@H](C)O)NC(=O)[C@@H](CCCN)NC(=O)[C@H](CCCNC(=N)N)NC(=O)[C@@H](CCCN)NC1=O,Acanthamoeba castellanii,,,trophozoites,,IC90,> 16 µg/mL
C[C@]12C=CC(=O)C=C1CC[C@@H]1C2=CC[C@]2(C)[C@@H](C(=O)CN3CCN(c4cc(N5CCCC5)nc(N5CCCC5)n4)CC3)CC[C@@H]12,Plasmodium falciparum,,GB4,,,IC50,1260 nM
CCc1nc2nc(C)cc(Nc3ccc(F)c(Cl)c3)n2n1,Plasmodium falciparum,"parasite growth, SYBR Green",3D7 wild type,72 h,,EC50,514 ± 150 nM
Cc1cc(Cl)cc(S(C)(=O)=O)c1NC(=O)c1cc(Br)nn1-c1ncccc1Cl,Spodoptera litura,leaf-dip,third instar larvae,"6.25 ppm, 24 h",,mortality,0%
CC(C)[C@H]1NC(=O)[C@@H]([C@H](C)O)NC(=O)[C@H](CO)NC(=O)[C@@H](CCCNC(=N)N)NC(=O)CNC(=O)[C@H](Cc2ccccc2)NC(=O)[C@H]([C@@H](C)O)NC1=O,Naegleria fowleri,,,trophozoites,,IC90,> 16 µg/mL
NC(=NCc1ccccc1)NC(=O)c1nc(Cl)c(N)nc1N,Plasmodium falciparum,,W2,,,IC50,3980 nM
Oc1ccc(-c2nc(-c3ccc(Oc4ccccc4CBr)cc3)no2)cc1,Clostridioides difficile,spore germination,ATCC 43255,"45 µM, 1 h",,inhibition,14 to 39%
CN[C@H](CC(C)C)C(=O)N[C@H]1C(=O)N[C@@H](CC(N)=O)C(=O)N[C@H]2C(=O)N[C@H]3C(=O)N[C@H](C(=O)N[C@H](C(=O)O)c4cc(O)cc(O)c4-c4cc3ccc4O)[C@H](O)c3ccc(c(Cl)c3)Oc3cc2cc(c3O[C@@H]2O[C@H](CO)[C@@H](O)[C@H](O)[C@H]2O[C@H]2C[C@](C)(N)[C@H](O)[C@H](C)O2)Oc2ccc(cc2Cl)[C@H]1O,Staphylococcus aureus MRSA NCTC 12493,,Galleria mellonella larvae,"10 mg/kg, titanium implant biofilm infection",,survival,80%
CC[C@H]1OC(=O)[C@H](C)[C@@H](O[C@H]2C[C@@](C)(OC)[C@@H](O)[C@H](C)O2)[C@H](C)[C@@H](O[C@@H]2O[C@H](C)C[C@H](N(C)C)[C@H]2O)[C@](C)(O)C[C@@H](C)CN(C)[C@H](C)[C@@H](O)[C@]1(C)O,Streptococcus pneumoniae,,,,,MIC90,> 32 µg/mL
C#Cc1ccc(O)c(C=NNC(=O)c2ccc(Br)cc2)c1,Cryptococcus neoformans,,H99,"unit not given, with: fluconazole",lower = more synergy,FICI,0.7
O=C(NN=Cc1ccc(O)c(Br)c1)c1cccc(Br)c1,Cryptococcus neoformans,,,"concentration not given, with: amphotericin B",,MIC in combination,0.15 µg/mL
COCC(C)n1c(SCC(=O)Nc2cc(C(F)(F)F)ccc2Cl)nc2ccccc2c1=O (stereo not drawn),Plasmodium falciparum,parasite growth,,,,EC50,> 5000 nM
CC(C)[C@H]1NC(=O)[C@H](Cc2ccccc2)NC(=O)CNC(=O)[C@@H](Cc2c[nH]c3ccccc23)NC(=O)[C@H](CCCCN)NC(=O)[C@@H](CCCN)NC1=O,Acanthamoeba castellanii,,,trophozoites,,IC90,> 16 µg/mL
Cc1noc(-c2cccs2)c1C(=O)NCCc1cccc(Cl)c1,Plasmodium falciparum,"parasite growth, SYBR Green",3D7 wild type,72 h,,EC50,234 ± 53 nM
Cc1c2c(nn1C)CSCc1cc(n(C)n1)CSc1cc(c3ccccc3c1)OCCCc1c(C(=O)O)n(C)c3c-2c(Cl)ccc13,Staphylococcus aureus,"label-free proteomics, measured: tdcB",SA113,concentration not given,relative to: untreated,protein level fold change,0.0385
CC(=O)N[C@H]1[C@@H](O[C@@H]2O[C@H](C[C@@H](O)[C@H]3O[C@@H](n4ccc(=O)[nH]c4=O)[C@H](O)[C@@H]3O)[C@H](O)[C@H](O)[C@H]2NC(=O)/C=C/CCCCCCCCCC(C)C)O[C@H](CO)[C@@H](O)[C@@H]1O,Candida glabrata,alamar blue,DSY565 (NR-51686),,,MIC50,0.93 ± 0.055 µg/mL
Cn1c(=O)ccc2ccc(F)c(CCNC[C@H]3CN(c4cnc5c(n4)NC(=O)CO5)C(=O)O3)c21,Clostridioides difficile,,,,,MIC90,0.03 µg/mL
C#Cc1ccc(O)c(C=NNC(=O)c2ccc(Br)c(Br)c2)c1,Cryptococcus neoformans,,H99,"unit not given, with: fluconazole",lower = more synergy,FICI,1.12
COC(=O)N[C@H](C(=O)N1CCC[C@H]1c1ncc(-c2ccc(-c3ccc(-c4cnc([C@@H]5CCCN5C(=O)[C@@H](NC(=O)OC)C(C)C)[nH]4)cc3)cc2)[nH]1)C(C)C,hepatitis C virus,HCV replicon,,"75% effect level, with: IFN-α, ratio 2.5:1",,combination index,0.75 and 0.64
CC[C@H](C)[C@H](NC(=O)[C@H](C)NC(=O)[C@H](CCCCN)NC(=O)[C@H](CC(C)C)NC(=O)[C@H](C)NC(=O)[C@@H](NC(=O)[C@H](Cc1c[nH]cn1)NC(=O)[C@H](CC(C)C)NC(=O)[C@@H](NC(=O)[C@@H](NC(=O)[C@H](CCCCN)NC(=O)[C@H](C)NC(=O)[C@H](C)NC(=O)[C@H](CO)NC(=O)[C@H](CCCCN)NC(=O)[C@H](Cc1ccccc1)NC(=O)[C@@H](NC(=O)[C@H](CCCCN)NC(=O)[C@H](CC(C)C)NC(=O)[C@H](Cc1ccccc1)NC(=O)[C@H](CO)NC(=O)[C@H](CCCCN)NC(=O)[C@H](Cc1c[nH]c2ccccc12)NC(=O)[C@H](CCCCN)NC(C)=O)[C@@H](C)O)[C@@H](C)O)C(C)C)[C@@H](C)O)C(=O)N[C@@H](CO)C(=O)N[C@@H](CO)C(N)=O,Citrobacter,,,20 strains,,MIC50,8 µg/mL
CC(C)OC(=O)c1cc2c(OCC(O)CNC(C)(C)C)cccc2[nH]1 (stereo not drawn),"Cholinesterase (BCHE, Homo sapiens, UniProt P06276)",inhibitor,,with Triton,,IC50,1340 ± 340 nM
C[C@H]1c2cccc(O)c2C(=O)C2=C(O)[C@]3(O)C(=O)C(C(N)=O)=C(O)[C@@H](N(C)C)[C@@H]3[C@@H](O)[C@@H]21,Staphylococcus aureus,,,,,MIC90,1 µg/mL
C=C(CN(C(=O)c1c(C(F)F)nn(C)c1F)C1CC1)c1ccc(Cl)cc1Cl,Exserohilum turcicum,,,1.56 mg/L,,colony diameter,5 mm
CNCC[C@@H](Oc1ccccc1C)c1ccccc1,Plasmodium falciparum,,Dd2,,,IC50,5010 nM
CNC(=O)c1cc(Cl)cc(C)c1NC(=O)c1cc(Br)nn1-c1ncccc1Cl,Spodoptera litura,leaf-dip,third instar larvae,"12.5 ppm, 48 h",,mortality,70%
Cc1ccc2c(c1)CC[C@@](CCN(C)CCCc1nc3ccccc3[nH]1)(OC(=O)C1CC1)[C@H]2C(C)C,Plasmodium falciparum,,7G8,,,IC50,2510 nM
CC1(C)SC2C(NC(=O)C(NC(=O)C3=C(O)C4CCCN4C3=O)c3ccccc3)C(=O)N2C1C(=O)O (stereo not drawn),Escherichia coli,,ΔtolC JW5503-1,"200 µM, with: 30 µg/mL 2,2'-bipyridyl",,zone of inhibition,16.7 mm
COc1ccc2c(ccc3oc([N+](=O)[O-])c(OC)c32)c1,Klebsiella pneumoniae,REMA,,,,MIC90,> 32 µg/mL
CC(=O)c1c(Nc2c(C)cc(C)cc2C)oc(C)cc1=O,Plasmodium falciparum,"parasite growth, SYBR Green",3D7 DHODH E182D,72 h,,EC50,1250 ± 270 nM
CC12CC3CC(C)(C1)CC(N)(C3)C2,Plasmodium falciparum,,Dd2,,,IC50,7940 nM
C#Cc1cccc(C=NNC(=O)c2ccc(Br)c(Br)c2)c1O,Cryptococcus neoformans,,H99,"unit not given, with: amphotericin B",lower = more synergy,FICI,2
Cc1ccccc1C(=O)NN=Cc1ccc(O)c(Br)c1,Cryptococcus neoformans,,,with: fluconazole,lower = more synergistic,FIC index,0.38
CC(C)[C@@H]1NC(=O)[C@@H](C(C)C)NC(=O)[C@H](C)NC(=O)[C@H](CO)NC(=O)[C@H](Cc2c[nH]c3ccccc23)NC(=O)[C@@H](Cc2ccc(O)cc2)NC(=O)[C@H](CCCN)NC(=O)[C@H](Cc2c[nH]c3ccccc23)NC1=O,Naegleria fowleri,,,trophozoites,,IC90,> 16 µg/mL
CS(=O)(=O)CCCn1c(Cn2c(=O)n(CC(F)(F)F)c3ccncc32)cc2cc(Cl)ccc21,respiratory syncytial virus,RT-qPCR,"hospitalized infants 1-24 months, nasal swab","oral, 1-9 mg/kg daily, day 28, all doses combined",relative to: placebo,LS mean difference vs placebo,0.15 log10 copies/mL

# Repeated from above:
SMILES,tested on,test,test system,conditions,how to read,endpoint,value
Cc1cc(Cl)cc(S(C)(=O)=O)c1NC(=O)c1cc(Br)nn1-c1ncccc1Cl,Spodoptera litura,leaf-dip,third instar larvae,"6.25 ppm, 24 h",,mortality,0%
CC(C)[C@H]1NC(=O)[C@@H]([C@H](C)O)NC(=O)[C@H](CO)NC(=O)[C@@H](CCCNC(=N)N)NC(=O)CNC(=O)[C@H](Cc2ccccc2)NC(=O)[C@H]([C@@H](C)O)NC1=O,Naegleria fowleri,,,trophozoites,,IC90,> 16 µg/mL
NC(=NCc1ccccc1)NC(=O)c1nc(Cl)c(N)nc1N,Plasmodium falciparum,,W2,,,IC50,3980 nM
Oc1ccc(-c2nc(-c3ccc(Oc4ccccc4CBr)cc3)no2)cc1,Clostridioides difficile,spore germination,ATCC 43255,"45 µM, 1 h",,inhibition,14 to 39%
